Experimental data pooled from the literature.
Protocols differ between the studies behind these lines. ± marks the error that the study gave.

| Structure (SMILES) | assay | system | setting | Cmax |
| --- | --- | --- | --- | --- |
| Cc1nc2cccc(OCC(C)(C)C(=O)NC(C)C)c2c(N)c1C(=O)O | – | Sprague-Dawley rat, male, plasma | oral, 10 mg/kg, day 7 | 16.2 ± 3.6 ng/mL |
| CC(=O)N[C@@H](Cc1ccccc1)C(=O)N[C@H]1CCCNC(=O)[C@H](CCCNC(=N)N)NC(=O)[C@H](Cc2c[nH]c3ccccc23)NC(=O)[C@@H](CC2CCCCC2)NC(=O)[C@@H]2CCCN2C1=O | – | C57BL/6J mouse, plasma | intraperitoneal, 1 mg/kg, single dose | 4920 ng/mL |
| O=c1c(O)c(-c2ccc(O)cc2)oc2cc(OS(=O)(=O)O)cc(O)c12 | – | FVB mice, male, Bcrp1^−/−, plasma | oral, 10 mg/kg of kaempferol | 1.09 ± 0.21 µM |
| COc1cc(CCC(C)=O)ccc1O | – | male C57BL/6J mice low-fat diet, plasma | oral, 200 mg/kg, after enzymatic deconjugation | 25 ± 2.9 µM |
| CC[C@H](C)[C@@H]1NC(=O)[C@H](Cc2ccc(O)cc2)NC(=O)[C@@H](N)CSSC[C@@H](C(=O)N2CCC[C@H]2C(=O)N[C@@H](CC(C)C)C(=O)NCC(N)=O)NC(=O)[C@H](CC(N)=O)NC(=O)[C@H](CCC(N)=O)NC1=O | microdialysis, radioimmunoassay | C57BL/6J male mice, wild type, hippocampus extracellular fluid | intraperitoneal, 12 µg total | 2.23 ± 1.07 pg/sample |
| COc1ccc(/N=C(\N)CC(O)c2cc3c(F)cc(F)cc3c3cc(C(F)(F)F)ccc23)cc1.Cl (centres unmarked) | – | mouse, dried blood spot | oral, 30 mg/kg single dose | 78.1 ng/mL |
| CCCC[C@H](NC(C)=O)C(=O)N[C@H]1CCC(=O)NC[C@@H](C(=O)N[C@@H](Cc2c[nH]c3ccccc23)C(N)=O)NC(=O)[C@H](CCCNC(=N)N)NC(=O)[C@@H](Cc2ccccc2)NC(=O)[C@H](Cc2c[nH]cn2)NC1=O | – | CD Sprague-Dawley rat, male, plasma | subcutaneous, 5.0 mg/kg/day, day 1 | 1180 ng/mL |
| OCCc1ccc(O)cc1 | – | male C57BL/6J mice low-fat diet, plasma | oral, 200 mg/kg, after enzymatic deconjugation | 41.8 ± 3.73 µM |
| Cc1cc(Nc2cc3ncccc3c(N[C@@H]3C[C@H]4CC[C@@H](C3)N4CCC#N)n2)n[nH]1 | – | beagle dog, female, plasma | oral, 30 mg/kg/day, last day of 39 weeks | 81.7 ng/mL |
| COc1cccc2c1C(=O)c1c(O)c3c(c(O)c1C2=O)C[C@@](O)(C(=O)CO)C[C@@H]3O[C@H]1C[C@H](N)[C@H](O)[C@H](C)O1 | – | mouse, E0771 tumour-bearing, plasma | intravenous, 92 µmol/kg | 7.09 µM |
| CC(=O)C=Cc1ccc(O)c(O)c1 | – | male C57BL/6J mice low-fat diet, plasma | oral, 200 mg/kg, diet 8 weeks | 0.99 ± 0.12 µM |

Excerpt of the above:
| Structure (SMILES) | assay | system | setting | Cmax |
| --- | --- | --- | --- | --- |
| OCCc1ccc(O)cc1 | – | male C57BL/6J mice low-fat diet, plasma | oral, 200 mg/kg, after enzymatic deconjugation | 41.8 ± 3.73 µM |
